# Measured values of several laboratories.
# Lines come from different studies, so protocols differ. Several values in a cell are separate wells, animals, samples, runs or records.
# Target: Dual specificity mitogen-activated protein kinase kinase 2 (MAP2K2, Homo sapiens, UniProt P36507)
SMILES,assay,setting,scale,quantity,result
NC(=O)C[C@H]1CCc2sc3ncnc(O[C@H]4CC[C@H](N5CCOCC5)CC4)c3c21,"enzyme activity, inhibitor",10 µM,,inhibition,2%
CNC(=O)C[C@H](Cc1ccc(C#N)cc1)NC(=O)c1cc(-c2ccc(CN[C@H](C)c3ccc(C)cc3)o2)ccc1Cl,"enzyme activity, inhibitor",1 µM,,activity vs control,113%
Cc1nc2c(F)cc(-c3nc(Nc4ccc(CNC(=O)CCCCCCC(=O)NO)cc4)ncc3F)cc2n1C(C)C,"enzyme activity, inhibitor",1 µM,,inhibition,57%
COc1cc(Nc2nc(C)cc(-c3cnn4nc(OC)ccc34)n2)cc(C(F)(F)F)c1,inhibitor,"1 µM, MEK2",relative to: control,remaining activity,77%
O=C(Cc1ccc(OCc2ccccc2)cc1)NC1(C(=O)O)CCN(C(=O)c2ccc(-c3cccc(Cl)c3)cc2)CC1,"enzyme activity, inhibitor",10 µM,,activity vs control,106%
COc1ccc(C(=O)/C=C/c2ccccc2-c2c[nH]c3ccc(C#N)cc23)c(O)c1,"enzyme activity, inhibitor",20 µM,,inhibition,12%
Cc1cccc(O[C@H]2CCC[C@@H](C(C)CNCc3ccncc3)C2)c1 (relative stereo),"enzyme activity, inhibitor",10 µM,,inhibition,-14%
CCN1CCN(Cc2ccc(C(=O)Nc3ccc(C)c(NCc4cnc5[nH]ccc5c4OC)c3)cc2C(F)(F)F)CC1,"binding, competition with immobilised ligand",1 µM,,remaining binding,78%
CNC(=O)C1CCN(c2cc(C)c(F)cc2NC(=O)c2ccc(-c3cc(O)ccc3C)c(C)c2)CC1,"binding, competition with immobilised ligand",1 µM,,remaining binding,81%
C=CC(=O)N1CCc2ccc(-n3c(=O)ccc4cnc5ccc(-c6cnn(C)c6)cc5c43)cc21,KINOMEscan,1 µM,relative to: DMSO control,remaining binding,90%
C=C1CCCCCCCCCC(CO)C1=O (stereo not shown),"cell-free assay, competition with immobilised ligand",10 µM,,remaining binding,84%
CC(=O)N1c2ccc(-c3ccc(CNC(=O)c4cn5cc(-c6cnc(N)nc6)nc(N6CCOCC6)c5n4)cc3)cc2CC[C@@H]1C,KINOMEscan,10 µM,,remaining binding,75%
C=CC(=O)Nc1cccc(-c2cnc3[nH]cc(C(=O)NC(C)(C)C)c3n2)c1,kinase activity,0.1 µM,,inhibition,6% and 5%
CN1CC[C@@H](COc2cnc(C#N)cc2-c2ccn3nc(NC(=O)C4CC4)cc3c2)C1,"enzyme activity, inhibitor",1 µM,,inhibition,3%
CN1CCN(Cc2ccc(NC(=O)c3cccc(C#Cc4cnc(N)c5ncccc45)c3)cc2C(F)(F)F)CC1,"cell-free assay, competition with immobilised ligand",50 nM,,remaining binding,70%
Cc1cnc2nc1Nc1cccc(c1)COC/C=C/COCc1cc(ccc1OCCN1CCOCC1)N2,"binding, competition with immobilised ligand",0.1 µM,,remaining binding,75%
